Experimental data gathered from unrelated publications.
Numbered parts are unrelated; each lists some results of a single study.

Sample 1 — technique: RNAcompete; form: RNA; sample: in vitro; tested at: 20 nM; notes: 7-mer, probes averaged, single round; relative to: mean of 7-mers; reading: higher = stronger binding; measurement: 7-mer Z-score
Target: PABPC1L2, full length, GST fusion (mouse, UniProt A0ABA7IW68)
Construct (chain): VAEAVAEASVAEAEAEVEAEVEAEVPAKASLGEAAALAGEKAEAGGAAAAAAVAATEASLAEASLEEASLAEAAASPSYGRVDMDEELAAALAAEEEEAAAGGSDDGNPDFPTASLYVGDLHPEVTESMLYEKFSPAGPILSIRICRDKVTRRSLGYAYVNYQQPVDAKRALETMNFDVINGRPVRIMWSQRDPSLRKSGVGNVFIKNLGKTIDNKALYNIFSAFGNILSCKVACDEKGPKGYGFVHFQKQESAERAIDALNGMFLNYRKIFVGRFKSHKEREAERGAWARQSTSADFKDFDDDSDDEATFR
UUUACGU: -0.335
UACUGGU: -0.144
CAGAAGC: -0.0989
UGGGAAU: 0.095
GAGGGAA: 0.495
AGUUAUC: -0.133
GCCGUAA: -0.0591
UGGUUAC: -0.228

Sample 2 — technique: universal PBM; form: double-stranded DNA, one strand shown; sample: in vitro; tested at: not given; reading: higher = stronger binding; measurement: E-score
Target: Sal-like protein 4, full length isoform B (SALL4, Homo sapiens, UniProt Q9UJQ4-2, residues 1-616)
Notes: 8-mer, flanks averaged, mean of replicates
CACAAGTG: -0.0548
AGTGTTCC: 0.06
AATAAGGG: 0.134
ATTCACAC: 0.0577
AACGGTAT: 0.15
AGCGCACT: -0.329
GGCCGGAC: -0.339
CGGCCGCC: -0.31

Sample 3 — technique: competition protein-binding microarray; form: double-stranded DNA, one strand shown; sample: in vitro; tested at: 2 µM; added: Pho4 competitor, 0.05 µM; reading: higher = stronger binding; measurement: fluorescence intensity; shared flanks, not repeated: … GTCTTGATTCGCTTGACGCTGCTG
Target: Centromere-binding protein 1, full length, His-tagged (CBF1, Saccharomyces cerevisiae, UniProt P17106, residues 1-351)
UniProt P17106, sequence (whole entry, looked up): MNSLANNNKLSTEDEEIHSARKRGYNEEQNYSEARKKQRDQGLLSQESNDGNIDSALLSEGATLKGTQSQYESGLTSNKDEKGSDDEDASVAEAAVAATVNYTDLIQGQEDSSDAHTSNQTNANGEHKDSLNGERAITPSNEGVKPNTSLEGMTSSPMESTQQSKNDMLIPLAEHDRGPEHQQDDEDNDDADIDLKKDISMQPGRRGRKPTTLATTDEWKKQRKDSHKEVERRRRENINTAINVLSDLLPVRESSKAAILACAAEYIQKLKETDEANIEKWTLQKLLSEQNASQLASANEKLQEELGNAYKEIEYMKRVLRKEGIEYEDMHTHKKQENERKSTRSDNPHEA
Notes: whole 60-bp probe, lowest competitor level
ATATGTATTTCATTTCACGTGATGGGCTGGGATGTT: 2260 a.u.
CTTTCCCGATCTTGTCACACCACTTTAGCACATTTG: 123 a.u.
GATAGGGACGCGCATCATGTGTTGCTACTGTGTTTG: 196 a.u.
TGCGCAACAACTTGGTTCGTGGGTGTATGTCTAGAA: 62.7 a.u.
CGTCCTAGTGATTGGCGTGTGGGTGCCATGAGGAAG: 103 a.u.
ACCCAAACTGTGTGGAACGTGACGGAATTGCATTTG: 384 a.u.
CGTCCTAGTGATTTTCACGTGAAATCCATGAGGAAG: 665 a.u.
CGGGGTTAAGTTTTTCACGTGTACTGCTTGCAGCAG: 620 a.u.

Further values, each from its own experiment
CC(C)n1cc(CNS(=O)(=O)c2cc(F)cc(Cl)c2)nn1  remaining compound (human, microsomes or S9; 2 µM, 0.5 h): 22.7%

Repeated from above (sample 2):
AGTGTTCC: 0.06
AACGGTAT: 0.15
CGGCCGCC: -0.31
AGCGCACT: -0.329
